Measurements pooled from the literature.
Lines come from different studies, so protocols differ.

For `CCCCN1C[C@H](O)[C@@H](O)[C@@H](O)[C@H]1CO`, the IC50 was 6900 nM (sample F patient fibroblasts; Gb3 level lowering, LC-MS/MS, refers to: Gb3 d18:1/18:0; 216 h).
With `O=C(C[C@@H](C(F)F)n1ccc(F)n1)N1CCC(O)(Cn2cnc3c(cnn3-c3ccc(F)cc3)c2=O)CC1` the IC50 was 29.8 nM (LNCaP; cell viability, CCK-8; mean of 3 runs).
With `Cc1c(C(=O)O)ccc2c3n(nc12)[C@@H]1[C@H](C3)N(CC2CC2)[C@@]2(C(=O)Nc3cc(Cl)ccc32)[C@H]1c1cccc(Cl)c1F` the IC50 was 9780 nM (MC-38 (TP53 mutant); cell proliferation, alamarBlue; 72 h).
The IC50 of `Cc1cc(Nc2ncc(Cl)c(Nc3ccccc3S(=O)(=O)C(C)C)n2)c(OC(C)C)cc1C1CCNCC1` is reported as 706 nM (Ba/F3 ETV6-TRKC; cell viability).
`C=CC(=O)N1CCC(COCC(=O)N2CCN(c3nc(-c4cnc(N)nc4C(F)F)nc(N4CCOC[C@@H]4C)n3)CC2)CC1` gave an IC50 of 246 nM (A2058; western blot, refers to: phospho-PKB/Akt Ser473; 2 h).
`CC1(C)CCC(CN2CCN(c3ccc(C(=O)NS(=O)(=O)c4ccc(NCC5CCOCC5)c([N+](=O)[O-])c4)c(Oc4cnc5[nH]ccc5c4)c3)CC2)=C(c2ccc(Cl)cc2)C1` gave an IC50 of 7.41 nM (CD3+CD4- T cells; cell viability; AML patients).
`CC1(C)CCC2(CC1)N[C@@H](C(=O)N[C@@H]1CC[C@@H](C(N)=O)OC1)[C@H](c1ccnc(Cl)c1F)[C@]21C(=O)Nc2cc(Cl)ccc21` has an IC50 of 28 nM (SW982 (MDM2 non-amplified); cell proliferation, alamarBlue; 72 h).
`Cc1nc(NC(=O)N2CCC[C@H]2C(N)=O)sc1-c1ccnc(C(C)(C)C(F)(F)F)c1` has an IC50 of over 3000 nM (A2058; western blot, refers to: phospho-S6 Ser235/Ser236; 2 h).
For `CCc1cc2c(cc1N1CCC(N3CCOCC3)CC1)C(C)(C)c1[nH]c3cc(C#N)ccc3c1C2=O`, the IC50 was 718 nM (Ba/F3 TPM3-TRKA; cell viability).

Repeated from above:
The IC50 of `Cc1cc(Nc2ncc(Cl)c(Nc3ccccc3S(=O)(=O)C(C)C)n2)c(OC(C)C)cc1C1CCNCC1` is reported as 706 nM (Ba/F3 ETV6-TRKC; cell viability).
